Assay results from different studies.
Compare with care: the assays were run in different laboratories.

C[C@@H](N)C1CCN(S(=O)(=O)c2cccc3cnccc23)CC1  incidence of epistaxis TEAE (healthy volunteers; 150 mg, fed): 10%
C[C@@H](c1ccc2nccn2c1)n1nnc2ncc(-c3cnn(C)c3)nc21  incidence of treatment-related AEs (measured: maculopapular rash; EGFR-mutant MET-altered NSCLC patients; oral, dose not given, AE grade ≥3, all): 1%
NC1(C(=O)N[C@@H](CCO)c2ccc(Cl)cc2)CCN(c2nc[nH]c3nccc2-3)CC1  incidence of Nausea (metastatic CRPC patients; dose not given, grade 3 to 4, treatment-related, all doses, added: enzalutamide 160 mg daily): 0%
O=C(Nc1nc2cccc(-c3ccc(CN4CCS(=O)(=O)CC4)cc3)n2n1)C1CC1  incidence of dizziness (rheumatoid arthritis patients; oral, 300 mg once daily, 4 weeks, TEAE regardless of relatedness): 0%
N#CCNC(=O)c1ccc(-c2ccnc(Nc3ccc(N4CCOCC4)cc3)n2)cc1  incidence of peripheral neuropathy (patients with myelofibrosis; oral, 200 mg, 24 weeks, phase III trials): 9.1%
C=CC(=O)Nc1cc(Nc2nccc(-c3cn(C)c4ccccc34)n2)c(OC)cc1N(C)CCN(C)C  incidence of treatment-related AEs (measured: peripheral oedema; EGFR-mutant MET-altered NSCLC patients; oral, dose not given, AE grade ≥3, all): 3%
COc1ccc([C@@H](O)c2cc(-c3ncnc4cc(N5CCOCC5)ccc34)c(F)cc2Cl)nn1  incidence of proctalgia TEAE (locally advanced rectal cancer; oral, 150 mg, added: capecitabine and radiotherapy): 50%
CCO[C@H]1CCN(Cc2c(OC)cc(C)c3[nH]ccc23)[C@H](c2ccc(C(=O)O)cc2)C1  incidence reverse T3 increase (PNH patients, active haemolysis; oral, 25 mg, treatment): 0%
NCCONC(=O)[C@@H]1CC[C@@H]2CN1C(=O)N2OS(=O)(=O)O  incidence of serious TRAE (healthy Chinese male subjects; intravenous, 2 g): 0%

Some of these lines once more:
N#CCNC(=O)c1ccc(-c2ccnc(Nc3ccc(N4CCOCC4)cc3)n2)cc1  incidence of peripheral neuropathy (patients with myelofibrosis; oral, 200 mg, 24 weeks, phase III trials): 9.1%
C=CC(=O)Nc1cc(Nc2nccc(-c3cn(C)c4ccccc34)n2)c(OC)cc1N(C)CCN(C)C  incidence of treatment-related AEs (measured: peripheral oedema; EGFR-mutant MET-altered NSCLC patients; oral, dose not given, AE grade ≥3, all): 3%
